Experimental data from different studies.
Each line is one published result; not all experiments were run side by side. Values joined by “and” are separate records of one study, mostly repeats; a detail may differ.
Effect on: metabolic stability
Host: human

| SMILES | medium | tested at | pH | half-life |
| --- | --- | --- | --- | --- |
| CC(C)(C)c1nc(-c2ccc(NC(=O)c3cccs3)cc2Cl)no1 | liver microsomes | 1 µM | pH 7.4 | ~60 min |
| O=C(NC1CC=C(c2cc3c(Nc4cc5ncsc5cc4F)ncnc3s2)CC1)NC1CCCC1 (racemic) | liver microsomes |  |  | > 120 min |
| COc1cc(-c2nc3ccc(C(=O)NCCCN4CCN(c5ccccc5)C(=O)C4)cc3n2C2CCC2)cc(OC)c1OC | liver microsomes |  |  | 9 min |
| CCC(CC)CN(C[C@@H](O)[C@H](Cc1ccccc1)NC(=O)O[C@H]1CO[C@H]2OCC[C@H]21)S(=O)(=O)c1ccc2ncsc2c1 | liver microsomes |  |  | > 180 min |
| O=C(CCCCCCNC(=O)c1cc(C(=O)c2ccccc2)cn1Cc1ccc(F)cc1)NO | liver microsomes | 0.5 µM | pH 7.4 | 510 min |
| O=C(NC1CC=C(c2cc3c(Nc4cc5ncsc5cc4F)ncnc3s2)CC1)NC1CC1 (racemic) | liver microsomes |  |  | > 120 min |
| CC12CC3CC(C)(C1)CC(NC(=O)NC1CCC(Oc4ccc(C(=O)O)cc4)CC1)(C3)C2 (stereo not shown) | liver microsomes |  |  | 8 min |
| CO[C@@H](C(N)=O)[C@H](NC(=O)c1ccc(NC(=O)c2ccc([N+](=O)[O-])cc2)cc1)C(=O)Nc1ccc(C(=O)Nc2ccc(C(=O)Nc3ccc(C(=O)O)cc3)c(O)c2OC(C)C)cc1 | hepatocytes |  |  | > 400 min |
| O=C(NC1CCCC1)N1CCC=C(c2cc3c(Nc4cc5ncsc5cc4F)ncnc3s2)C1 | liver microsomes |  |  | > 120 min |
| O=C(O)C(Cc1c[nH]c2ccccc12)Nc1ccccc1 (stereo not shown) | liver microsomes | 1.5 µM | pH 7.4 | 268 min |
| Cc1[nH]c2ccccc2c1CC(=O)N[C@@H](Cc1ccccc1)C(=O)N(C)c1ccccc1 | liver microsomes | 1 µM | pH 7.4 | < 1 min |
| COc1cc(-c2nc3ccc(C(=O)NCCCN4CCN(c5ccccn5)CC4)cc3n2C2CCC2)cc(OC)c1OC | liver microsomes |  |  | 9.8 min |
| CNC(=O)C1CCN(c2cc(C)c(F)cc2NC(=O)c2ccc(-c3cc(O)ccc3C)c(C)c2)CC1 | liver microsomes | 2 µM |  | > 120 min |
| Cc1nc(N[C@@H](C)c2ccc(-c3nc(C4CC4)no3)cc2)c2cc(C)oc2n1 | liver microsomes |  |  | 46 min |
| O=C1C2=C(CCN(Cc3ccccc3)C2)N2CCN=C2N1Cc1ccc(C(F)(F)F)cc1 | liver microsomes |  |  | 10.2 min |
| CC12CC3CC(C1)CC(NC(=O)NC1CCC(Oc4ccc(C(=O)O)cc4)CC1)(C3)C2 (stereo not shown) | liver microsomes |  |  | 54 min |
| CCc1nc(N)nc(N)c1C#CC(C)c1cc(-c2cc(C)nc(C)c2)ccc1Cl (stereo not shown) | hepatocytes | 1 µM |  | 180 min |
| CC(C)NC(=O)N1CCC=C(c2cc3c(Nc4cc5ncsc5cc4F)ncnc3s2)C1 | liver microsomes |  |  | > 120 min |
| O=C(Nc1ccc(-c2noc(C3CC3)n2)c(Cl)c1)c1cccs1 | liver microsomes |  |  | 29.4 min |
| CC(=O)N1CCC=C(c2cc3c(Nc4cc5ncsc5cc4F)ncnc3s2)C1 | liver microsomes |  |  | > 120 min |
| CC(C)C[C@@H](NC(=O)[C@H](Cc1cccc2ccccc12)NC(=O)[C@H](CNC(=O)c1ccc2cc(F)ccc2c1)NC(=O)[C@H](CO)NC(=O)C1CCNCC1)C(=O)N[C@H](CO)C(=O)N1CCC[C@H]1C(=O)N[C@H](C(N)=O)[C@@H](C)O | liver S9 | 3 µM | pH 7.4 | > 240 min |
| CN1C(=O)C2(Nc3ccccc3C(=O)N2Cc2ccccc2)c2cc(Br)ccc21 (stereo not shown) | liver microsomes |  |  | < 2.3 min |
| CC(C)NC(=O)NC1CC=C(c2cc3c(Nc4cc5ncsc5cc4F)ncnc3s2)CC1 (racemic) | liver microsomes |  |  | > 120 min |
| CNC(=O)C1CCN(c2ccccc2NC(=O)c2ccc(-c3c(C)ccc4[nH]ncc34)c(C)c2)CC1 | liver microsomes | 2 µM |  | < 100 min |
| CC(C)NC(=O)N1CC=C(c2cc3c(Nc4cc5ncsc5cc4F)ncnc3s2)CC1 | liver microsomes |  |  | > 120 min |
| O=C(Cc1ccccc1)Nc1nc2ccccc2n1Cc1ccccc1 | liver microsomes |  |  | 50.8 min and 51 min |
| CC(C)(C)NC(=O)NC1CC=C(c2cc3c(Nc4cc5ncsc5cc4F)ncnc3s2)CC1 (racemic) | liver microsomes |  |  | > 120 min |
| O=C1N[C@H](CO)Cc2cccc(c2)CCCOc2cccc1c2 | hepatocytes |  |  | 10 min |

A few entries again:
| SMILES | medium | tested at | pH | half-life |
| --- | --- | --- | --- | --- |
| Cc1nc(N[C@@H](C)c2ccc(-c3nc(C4CC4)no3)cc2)c2cc(C)oc2n1 | liver microsomes |  |  | 46 min |
| O=C1C2=C(CCN(Cc3ccccc3)C2)N2CCN=C2N1Cc1ccc(C(F)(F)F)cc1 | liver microsomes |  |  | 10.2 min |
| CC12CC3CC(C1)CC(NC(=O)NC1CCC(Oc4ccc(C(=O)O)cc4)CC1)(C3)C2 (stereo not shown) | liver microsomes |  |  | 54 min |
